Experimental data collected from several papers.
Parts stem from different laboratories: compare values within a part only. Changes are numbered by the printed parent chain.

Series 1 — method: protein-binding microarray; molecule type: double-stranded DNA, one strand shown; matrix: in vitro; tested at: 2200 nM top; setting: 60-bp whole probe; together with: salmon DNA 0.4 mg/ml; baseline: random background probes; reading: higher = stronger binding; constant ends, left off below: GCCTAGCAC … GTCTTGATTCGCTTGACGCTGCTG
Target: Interferon regulatory factor 7, full length, phosphomimetic (IRF7, Homo sapiens, UniProt Q92985, residues 1-503, S471D/S472D/S475D/S476D/S477D/S483D/S484D/S487D)
Chain of UniProt Q92985 (whole entry, unmodified, looked up): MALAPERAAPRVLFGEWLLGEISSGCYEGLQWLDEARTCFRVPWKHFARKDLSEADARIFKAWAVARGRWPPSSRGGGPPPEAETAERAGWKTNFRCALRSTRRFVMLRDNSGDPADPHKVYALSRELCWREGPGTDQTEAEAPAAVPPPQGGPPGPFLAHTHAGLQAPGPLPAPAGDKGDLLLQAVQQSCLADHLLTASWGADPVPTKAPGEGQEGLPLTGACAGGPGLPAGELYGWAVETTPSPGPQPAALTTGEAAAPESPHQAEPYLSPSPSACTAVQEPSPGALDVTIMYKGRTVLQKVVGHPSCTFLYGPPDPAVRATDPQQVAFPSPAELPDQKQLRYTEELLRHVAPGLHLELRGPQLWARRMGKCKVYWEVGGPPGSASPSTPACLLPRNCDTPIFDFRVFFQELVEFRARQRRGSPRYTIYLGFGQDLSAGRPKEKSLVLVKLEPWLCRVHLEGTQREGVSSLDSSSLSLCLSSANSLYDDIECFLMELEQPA
| Strand | fitted relative affinity [z-score] |
| --- | --- |
| TCAAGACTTGATTTTGGACTGTGCTAG | -0.0879 |
| GACAGTTTCGGTCTCGGGACGTGCTAG | 8.06 |
| AACGGTTTCGGGTTTCGGGACGTGCTA | 9.96 |
| TACTTTCTATGTCTGTTTTTGTGCTAG | 4.96 |
| TATGTTCCTTTAGCACTTTGGTGCTAG | 1.4 |
| AGAATCTTAGATATTAAACTGTGCTAG | -0.68 |
| TTAGGACTGGGGATCGGTTAGTGCTAG | -0.473 |
| TTAGGACTCGGACTGGGTTAGTGCTAG | -0.446 |
| GACGGTATCCTACTGCTCACGTGCTAG | 0.994 |
| GACGATTCCGGGACTGGAGACGTGCTA | -0.142 |
| TGTGTCCTGGCTTTGACTCTGTGCTAG | 1.05 |
| GACGATCTCAGTGTCGAGACGTGCTAG | 0.0999 |
| TTATGTCTGGGTATTTTTTCGTGCTAG | 1.08 |
| TTAGGACTGGACTATCAGTTAGTGCTA | -0.822 |
| TTAGGTTTCGTGTATCGGTTAGTGCTA | 4.34 |
| GACGGTGTCGACTTTCGGGACGTGCTA | 2.65 |
| GACGGTATCGGGACCGGGGACGTGCTA | -0.503 |
| TTATGTTCCCTTTTCCTTTAGTGCTAG | 3.75 |
| ATACTGAGAAAGCACTGGACGTGCTAG | -0.383 |
| TTAGGTTTCGACTTTCGGCTAGTGCTA | 7.79 |

Series 2 — method: protein binding microarray; molecule type: double-stranded DNA, one strand shown; matrix: in vitro; tested at: not given; baseline: not given; reading: higher = stronger binding
Target: Histone acetyltransferase KAT6A, both winged helices, GST fusion (KAT6A, Homo sapiens, UniProt Q92794, residues 1-181)
Setting: 8-mer, flanks averaged, mean of 2 arrays, mostly near background
Construct (chain): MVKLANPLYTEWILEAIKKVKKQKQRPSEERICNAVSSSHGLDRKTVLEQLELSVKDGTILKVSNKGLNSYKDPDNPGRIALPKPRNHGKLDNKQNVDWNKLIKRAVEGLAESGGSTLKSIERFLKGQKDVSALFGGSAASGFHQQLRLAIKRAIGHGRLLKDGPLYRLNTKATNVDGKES
| Strand | E-score |
| --- | --- |
| AACAGTTG | -0.125 |
| AGAACCGG | 0.218 |
| AACCCGAT | 0.134 |
| ACCTAACG | -0.00607 |
| AAGCGGTC | 0.19 |
| GCATTGAA | -0.00228 |
| ATTCCCAC | -0.155 |
| GTGGCCAA | -0.201 |
| CATATACC | 0.0233 |
| TAAGAATA | -0.0654 |
| GTACGGGA | 0.261 |
| CACTCCGA | 0.0344 |
| CTAAAAAG | -0.0611 |
| AATGCCTG | -0.212 |
| AAACATAA | -0.109 |
| AGCACGAC | -0.00112 |
| AAATTGTG | -0.281 |
| AACTAGCG | 0.278 |
| TCATAACA | -0.0751 |
| ATCGAAGG | -0.00026 |
| GCCCACGC | 0.04 |
| GAGTCACC | -0.07 |
| GGTGTGCA | -0.123 |
| AAACTAAT | 0.00944 |
| GTAAAGCA | -0.0088 |

Series 3 — method: RNA Bind-n-Seq; molecule type: RNA; matrix: in vitro; tested at: 200 nM; setting: whole 134-nt RNA, ends assumed; together with: 150 mM LiCl; baseline: input library; reading: higher = stronger binding; library: 7-deaza-guanosine replaces G
Target: Ras GTPase-activating protein-binding protein 1, full length (G3BP1, Homo sapiens, UniProt Q13283)
Chain of UniProt Q13283 (whole entry, looked up): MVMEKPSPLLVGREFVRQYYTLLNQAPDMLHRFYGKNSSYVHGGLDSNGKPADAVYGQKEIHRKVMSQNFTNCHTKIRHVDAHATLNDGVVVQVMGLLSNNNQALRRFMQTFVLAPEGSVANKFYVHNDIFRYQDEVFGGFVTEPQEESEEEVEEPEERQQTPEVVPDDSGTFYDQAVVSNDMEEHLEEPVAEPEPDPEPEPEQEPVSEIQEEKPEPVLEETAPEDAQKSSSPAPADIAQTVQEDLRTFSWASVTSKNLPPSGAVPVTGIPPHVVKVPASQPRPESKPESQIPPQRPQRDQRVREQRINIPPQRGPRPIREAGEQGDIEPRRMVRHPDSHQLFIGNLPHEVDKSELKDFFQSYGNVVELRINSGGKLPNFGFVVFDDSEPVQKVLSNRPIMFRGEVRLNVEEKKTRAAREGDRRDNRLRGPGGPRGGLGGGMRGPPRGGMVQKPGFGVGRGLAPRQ
| Strand | log2 enrichment |
| --- | --- |
| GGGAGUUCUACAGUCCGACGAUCGUCCUGUGCUACACAUCGUAUGUACCGAAUCAAAUUUUUAAAUUUUUUUAAACCCAAAAAAGUAUUAUGUUACGCCGUUCGGAUCUGCACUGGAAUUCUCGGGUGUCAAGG | -0.785 |
| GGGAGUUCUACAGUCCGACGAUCGUCCUGUGCUACACAUCGUAUGUACCGAAUCGGGAAAAAAAGGGAAAGGGUUUUUGGGAAAGUAUUAUGUUACGCCGUUCGGAUCUGCACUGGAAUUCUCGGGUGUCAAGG | -1.17 |
| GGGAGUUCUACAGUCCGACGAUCCAAGUCCUGUGCUACACAUCGUAUGUACCGAAUCGGGAAAGGGGAAAGGGGAAAGGAAAGUAUUAUGUUACGCCGUUCGGAUCUGCACUUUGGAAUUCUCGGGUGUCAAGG | -0.67 |
| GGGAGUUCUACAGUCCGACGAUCUCAAGUCCUGUGCUACACAUCGUAUGUACCGAAUCGGGGAAGGAAGGGGAAGGGAAAGUAUUAUGUUACGCCGUUCGGAUCUGCACUUCCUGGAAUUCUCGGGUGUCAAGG | -0.22 |
| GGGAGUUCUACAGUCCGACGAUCAAUUCUCAUUUCUCGACAUAAAGCCUUGUCUAAAGUGAGAUGUUUUCCAGGUCAUACAUAGGUUUCUCCCUGGGGUAAUUGGAAGUUCUUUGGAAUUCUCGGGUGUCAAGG | -1.89 |
| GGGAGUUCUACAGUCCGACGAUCUGUGUGUUAUAUAUUUAUUUUUAAUUGCAGAUGACAGGAUUGGACAUUGAGAAGGACCAGAUUAUUGAGAUGGCCUGUCUGAUAACUGACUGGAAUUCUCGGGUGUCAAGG | -2.81 |
| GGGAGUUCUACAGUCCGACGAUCUCCUGUGCUACACAUCGUAUGUACCGAAUCGGGGCCCCCGGGGCCCCCGGGGCCCCCGGGAAAGUAUUAUGUUACGCCGUUCGGAUCUGCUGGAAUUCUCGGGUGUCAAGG | -0.0682 |
| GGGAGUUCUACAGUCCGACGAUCCUCAAGUCCUGUGCUACACAUCGUAUGUACCGAAUCGGGAAGGGAAGGAAGGGGAAAGUAUUAUGUUACGCCGUUCGGAUCUGCACUUCCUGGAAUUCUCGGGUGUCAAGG | -0.248 |
| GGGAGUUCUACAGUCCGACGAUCCUCAAGUCCUGUGCUACACAUCGUAUGUACCGAAUCGGGCCGGGGCCGGCCGGAAAGUAUUAUGUUACGCCGUUCGGAUCUGCACUUCCAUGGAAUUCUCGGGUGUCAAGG | 0.497 |
| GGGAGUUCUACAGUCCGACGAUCUGGGAGGUGGAUUUUGUUUAUUUUUUUAGCUCAUUUCCAGGGGUGGGAAUUUUUUUUUAAUAUGUGUGAUGAAUAAAGUUGUUUUUGAAAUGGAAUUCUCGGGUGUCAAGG | 0.0364 |
| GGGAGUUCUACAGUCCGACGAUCUGUCAUGGAUUCAAGUUAUUAAAAGCAUAAGUUUGGAAGACAGGCUUGCCGAAAUUGAGGACAUGAUUAAAAUUGCAGUGAAGUUUGAAAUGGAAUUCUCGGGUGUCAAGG | -4.29 |

Series 4 — target: NFE2L1, bZIP domain (human); method: DHFR protein complementation; matrix: yeast; baseline: wild-type JUN-FOS pair; reading: higher = stronger binding
Setting: single substitutions, most at no-binding floor
Starting sequence: JUN, bZIP domain (human); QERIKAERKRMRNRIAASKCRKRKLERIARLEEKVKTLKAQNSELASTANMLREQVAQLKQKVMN; partner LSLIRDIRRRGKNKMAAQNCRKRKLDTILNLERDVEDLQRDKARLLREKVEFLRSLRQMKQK
| Substitution | binding fitness |
| --- | --- |
| E32V | -1.42 natural log |
| L31D | -1.53 natural log |
| K39P | -1.51 natural log |
| K36T | -1.52 natural log |
| S47E | -1.58 natural log |
| A46V | -1.49 natural log |
| K39M | -1.5 natural log |
| E33A | -1.58 natural log |
| V35H | -1.52 natural log |
| N42W | -1.5 natural log |
| R30N | -1.29 natural log |
| E32L | -1.49 natural log |
| K36W | -1.59 natural log |
| A29T | -1.46 natural log |
| T48Y | -1.35 natural log |
| E44R | -1.3 natural log |

Some of these lines once more (series 2):
| Strand | E-score |
| --- | --- |
| CACTCCGA | 0.0344 |
| AAATTGTG | -0.281 |
| AAACATAA | -0.109 |
| GTAAAGCA | -0.0088 |
| CTAAAAAG | -0.0611 |
| GCATTGAA | -0.00228 |
